Measurements gathered from unrelated publications.
Protocols differ between the studies behind these lines. Numbers after ± are the reported error.
glf: UDP-galactopyranose mutase (glf, Mycobacterium tuberculosis, UniProt P9WIQ1)

Protein sequences, listed by entry. Tags and fused reporters are not part of them. Residues count along the entry.
UniProt P9WIQ1, whole entry: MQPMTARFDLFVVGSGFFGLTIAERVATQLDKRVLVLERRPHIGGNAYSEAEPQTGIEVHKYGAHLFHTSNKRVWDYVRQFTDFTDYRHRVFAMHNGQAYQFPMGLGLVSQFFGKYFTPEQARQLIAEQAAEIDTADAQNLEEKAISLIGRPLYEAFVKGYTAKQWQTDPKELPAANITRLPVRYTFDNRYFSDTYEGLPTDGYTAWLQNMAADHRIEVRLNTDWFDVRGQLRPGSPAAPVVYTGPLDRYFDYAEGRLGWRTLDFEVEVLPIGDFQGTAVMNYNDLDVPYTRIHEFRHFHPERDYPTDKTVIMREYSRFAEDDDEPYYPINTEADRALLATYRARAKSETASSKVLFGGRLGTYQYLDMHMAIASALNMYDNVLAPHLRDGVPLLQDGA
UniProt Q16832, whole entry, looked up: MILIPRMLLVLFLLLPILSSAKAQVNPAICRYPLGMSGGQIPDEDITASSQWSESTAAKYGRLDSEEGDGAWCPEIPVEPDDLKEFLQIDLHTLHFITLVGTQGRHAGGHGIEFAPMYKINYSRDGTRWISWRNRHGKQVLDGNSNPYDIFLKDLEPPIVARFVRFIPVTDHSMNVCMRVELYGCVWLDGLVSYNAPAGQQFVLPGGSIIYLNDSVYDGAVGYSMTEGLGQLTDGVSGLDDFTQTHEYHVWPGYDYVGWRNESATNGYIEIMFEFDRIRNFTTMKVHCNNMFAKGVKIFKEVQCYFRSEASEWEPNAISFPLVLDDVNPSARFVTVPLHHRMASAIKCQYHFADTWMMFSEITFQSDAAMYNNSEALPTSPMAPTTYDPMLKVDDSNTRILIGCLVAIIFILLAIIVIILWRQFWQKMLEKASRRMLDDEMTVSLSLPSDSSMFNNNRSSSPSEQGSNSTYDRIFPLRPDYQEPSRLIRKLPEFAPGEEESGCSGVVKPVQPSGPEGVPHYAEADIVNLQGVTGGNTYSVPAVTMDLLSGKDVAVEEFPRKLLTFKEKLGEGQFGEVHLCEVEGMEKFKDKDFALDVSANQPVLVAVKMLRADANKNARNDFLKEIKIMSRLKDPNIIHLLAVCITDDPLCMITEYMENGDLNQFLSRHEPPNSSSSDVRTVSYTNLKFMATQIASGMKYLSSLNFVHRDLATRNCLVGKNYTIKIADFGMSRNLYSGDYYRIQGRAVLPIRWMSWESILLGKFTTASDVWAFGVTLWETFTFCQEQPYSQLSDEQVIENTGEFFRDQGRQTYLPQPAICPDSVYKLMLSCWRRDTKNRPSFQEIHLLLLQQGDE
UniProt P42261, 19-906 limits assumed: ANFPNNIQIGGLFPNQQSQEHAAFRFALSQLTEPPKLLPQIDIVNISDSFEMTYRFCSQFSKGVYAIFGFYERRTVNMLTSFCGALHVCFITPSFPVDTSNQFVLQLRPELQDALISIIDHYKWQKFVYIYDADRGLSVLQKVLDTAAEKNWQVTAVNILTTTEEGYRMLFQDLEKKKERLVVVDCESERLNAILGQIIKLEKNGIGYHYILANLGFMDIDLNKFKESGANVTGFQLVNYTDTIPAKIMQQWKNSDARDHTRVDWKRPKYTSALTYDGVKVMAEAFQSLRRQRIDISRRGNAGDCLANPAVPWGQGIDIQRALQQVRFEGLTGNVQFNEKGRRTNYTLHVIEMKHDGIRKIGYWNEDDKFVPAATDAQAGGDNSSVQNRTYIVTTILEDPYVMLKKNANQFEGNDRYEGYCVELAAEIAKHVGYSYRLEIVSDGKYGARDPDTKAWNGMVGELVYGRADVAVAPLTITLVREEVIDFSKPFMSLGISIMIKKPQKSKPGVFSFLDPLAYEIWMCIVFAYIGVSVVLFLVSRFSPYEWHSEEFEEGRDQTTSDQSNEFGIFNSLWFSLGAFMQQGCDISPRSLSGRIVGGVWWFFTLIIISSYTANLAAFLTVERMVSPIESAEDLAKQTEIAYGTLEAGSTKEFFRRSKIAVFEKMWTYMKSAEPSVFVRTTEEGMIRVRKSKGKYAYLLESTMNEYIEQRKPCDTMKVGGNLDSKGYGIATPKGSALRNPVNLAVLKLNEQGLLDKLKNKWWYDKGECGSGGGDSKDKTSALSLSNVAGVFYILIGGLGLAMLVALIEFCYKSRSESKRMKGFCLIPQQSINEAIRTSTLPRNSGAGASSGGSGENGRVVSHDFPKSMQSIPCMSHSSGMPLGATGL
UniProt Q15858, 1-1977 isoform 3: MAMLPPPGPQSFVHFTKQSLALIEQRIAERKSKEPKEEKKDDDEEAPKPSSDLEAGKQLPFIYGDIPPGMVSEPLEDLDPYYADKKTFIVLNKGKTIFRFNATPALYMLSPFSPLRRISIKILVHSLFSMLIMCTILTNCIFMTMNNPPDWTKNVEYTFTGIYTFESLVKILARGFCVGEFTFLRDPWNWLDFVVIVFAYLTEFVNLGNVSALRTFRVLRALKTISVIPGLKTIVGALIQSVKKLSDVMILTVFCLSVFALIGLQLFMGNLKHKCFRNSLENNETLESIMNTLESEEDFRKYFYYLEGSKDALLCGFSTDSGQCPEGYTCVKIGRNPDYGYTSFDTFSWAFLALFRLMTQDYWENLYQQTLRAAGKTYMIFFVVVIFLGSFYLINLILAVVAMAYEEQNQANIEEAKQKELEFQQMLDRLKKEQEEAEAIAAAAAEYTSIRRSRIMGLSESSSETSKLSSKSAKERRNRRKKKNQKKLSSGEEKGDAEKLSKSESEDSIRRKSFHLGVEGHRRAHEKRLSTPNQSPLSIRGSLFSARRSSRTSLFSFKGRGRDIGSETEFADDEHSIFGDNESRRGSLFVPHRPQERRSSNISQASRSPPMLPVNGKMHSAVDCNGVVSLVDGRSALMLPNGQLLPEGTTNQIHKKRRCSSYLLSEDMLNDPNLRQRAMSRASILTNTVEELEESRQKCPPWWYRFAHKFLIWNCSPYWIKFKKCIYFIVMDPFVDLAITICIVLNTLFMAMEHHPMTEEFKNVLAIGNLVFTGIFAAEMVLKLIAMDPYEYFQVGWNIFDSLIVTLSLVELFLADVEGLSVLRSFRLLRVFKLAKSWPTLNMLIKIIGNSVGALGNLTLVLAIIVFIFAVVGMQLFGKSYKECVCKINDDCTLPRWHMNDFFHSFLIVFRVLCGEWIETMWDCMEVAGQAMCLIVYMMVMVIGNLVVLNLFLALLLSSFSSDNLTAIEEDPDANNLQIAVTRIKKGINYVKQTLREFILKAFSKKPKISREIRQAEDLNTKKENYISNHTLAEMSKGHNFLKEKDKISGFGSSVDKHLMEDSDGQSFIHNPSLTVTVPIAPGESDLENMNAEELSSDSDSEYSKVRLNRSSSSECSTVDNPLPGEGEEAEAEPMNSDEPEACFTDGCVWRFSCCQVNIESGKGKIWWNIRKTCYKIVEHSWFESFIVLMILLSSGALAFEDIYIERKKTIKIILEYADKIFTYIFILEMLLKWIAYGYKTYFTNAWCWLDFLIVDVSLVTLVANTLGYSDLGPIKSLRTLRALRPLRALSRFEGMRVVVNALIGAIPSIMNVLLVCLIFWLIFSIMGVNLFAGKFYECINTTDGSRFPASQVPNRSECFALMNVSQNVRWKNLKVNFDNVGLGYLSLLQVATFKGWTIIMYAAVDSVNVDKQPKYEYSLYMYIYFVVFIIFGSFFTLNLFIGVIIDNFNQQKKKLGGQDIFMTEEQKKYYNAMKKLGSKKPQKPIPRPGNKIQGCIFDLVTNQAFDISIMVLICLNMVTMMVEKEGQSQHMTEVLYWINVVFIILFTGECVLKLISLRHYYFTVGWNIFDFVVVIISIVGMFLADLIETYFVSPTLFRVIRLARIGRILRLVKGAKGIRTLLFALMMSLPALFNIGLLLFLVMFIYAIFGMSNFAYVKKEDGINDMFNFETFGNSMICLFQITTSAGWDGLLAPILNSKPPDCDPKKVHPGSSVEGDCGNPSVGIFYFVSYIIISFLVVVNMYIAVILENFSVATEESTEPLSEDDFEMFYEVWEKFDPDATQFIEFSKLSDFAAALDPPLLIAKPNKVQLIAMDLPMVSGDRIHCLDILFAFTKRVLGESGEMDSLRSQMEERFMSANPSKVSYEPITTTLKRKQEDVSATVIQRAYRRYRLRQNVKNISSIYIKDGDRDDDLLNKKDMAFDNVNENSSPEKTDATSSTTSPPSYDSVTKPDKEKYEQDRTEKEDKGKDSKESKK
UniProt P35368, whole entry: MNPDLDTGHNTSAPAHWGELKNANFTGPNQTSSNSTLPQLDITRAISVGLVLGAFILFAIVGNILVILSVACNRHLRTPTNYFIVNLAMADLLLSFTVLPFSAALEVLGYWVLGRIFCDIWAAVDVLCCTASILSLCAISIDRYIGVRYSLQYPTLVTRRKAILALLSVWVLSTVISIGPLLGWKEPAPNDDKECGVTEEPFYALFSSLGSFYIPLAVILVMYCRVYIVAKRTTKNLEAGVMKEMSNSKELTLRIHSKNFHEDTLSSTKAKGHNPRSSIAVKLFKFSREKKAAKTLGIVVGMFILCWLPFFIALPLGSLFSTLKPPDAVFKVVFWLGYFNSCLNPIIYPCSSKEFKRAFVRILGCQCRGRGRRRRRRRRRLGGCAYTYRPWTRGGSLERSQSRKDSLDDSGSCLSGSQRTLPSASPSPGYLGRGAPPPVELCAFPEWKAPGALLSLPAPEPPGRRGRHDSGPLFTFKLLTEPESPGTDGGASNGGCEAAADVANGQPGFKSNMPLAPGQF
UniProt Q08J23, whole entry: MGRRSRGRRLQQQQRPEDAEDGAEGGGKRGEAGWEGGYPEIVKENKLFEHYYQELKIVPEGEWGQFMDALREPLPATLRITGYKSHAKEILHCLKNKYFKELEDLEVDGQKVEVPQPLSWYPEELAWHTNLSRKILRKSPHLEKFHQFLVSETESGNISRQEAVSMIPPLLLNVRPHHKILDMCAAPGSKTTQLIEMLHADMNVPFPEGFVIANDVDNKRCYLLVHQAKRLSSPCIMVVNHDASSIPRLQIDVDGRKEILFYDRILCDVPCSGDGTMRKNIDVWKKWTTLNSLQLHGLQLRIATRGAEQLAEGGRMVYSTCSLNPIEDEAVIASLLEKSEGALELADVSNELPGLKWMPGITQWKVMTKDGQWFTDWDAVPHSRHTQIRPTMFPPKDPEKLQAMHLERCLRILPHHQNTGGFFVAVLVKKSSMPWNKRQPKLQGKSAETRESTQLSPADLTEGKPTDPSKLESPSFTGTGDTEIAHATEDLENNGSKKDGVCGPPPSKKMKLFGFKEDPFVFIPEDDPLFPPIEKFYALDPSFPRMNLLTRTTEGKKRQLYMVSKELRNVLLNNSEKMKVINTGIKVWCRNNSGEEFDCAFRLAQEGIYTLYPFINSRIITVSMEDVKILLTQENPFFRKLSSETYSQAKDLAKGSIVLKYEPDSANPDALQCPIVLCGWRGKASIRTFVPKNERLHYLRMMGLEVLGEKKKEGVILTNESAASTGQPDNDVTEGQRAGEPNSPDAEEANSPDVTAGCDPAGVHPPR
UniProt O35453, 1-416 isoform 2: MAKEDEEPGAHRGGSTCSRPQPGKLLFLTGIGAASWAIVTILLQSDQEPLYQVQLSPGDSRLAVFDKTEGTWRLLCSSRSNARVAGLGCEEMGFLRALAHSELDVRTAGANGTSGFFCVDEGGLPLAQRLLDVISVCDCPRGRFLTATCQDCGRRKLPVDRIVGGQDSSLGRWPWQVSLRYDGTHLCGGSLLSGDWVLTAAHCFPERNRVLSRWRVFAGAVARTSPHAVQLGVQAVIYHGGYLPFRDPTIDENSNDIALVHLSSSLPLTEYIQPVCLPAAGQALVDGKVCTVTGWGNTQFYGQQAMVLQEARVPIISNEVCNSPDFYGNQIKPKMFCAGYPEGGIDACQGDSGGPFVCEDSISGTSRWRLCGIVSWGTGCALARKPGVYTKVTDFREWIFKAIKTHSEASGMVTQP
UniProt Q04864, whole entry: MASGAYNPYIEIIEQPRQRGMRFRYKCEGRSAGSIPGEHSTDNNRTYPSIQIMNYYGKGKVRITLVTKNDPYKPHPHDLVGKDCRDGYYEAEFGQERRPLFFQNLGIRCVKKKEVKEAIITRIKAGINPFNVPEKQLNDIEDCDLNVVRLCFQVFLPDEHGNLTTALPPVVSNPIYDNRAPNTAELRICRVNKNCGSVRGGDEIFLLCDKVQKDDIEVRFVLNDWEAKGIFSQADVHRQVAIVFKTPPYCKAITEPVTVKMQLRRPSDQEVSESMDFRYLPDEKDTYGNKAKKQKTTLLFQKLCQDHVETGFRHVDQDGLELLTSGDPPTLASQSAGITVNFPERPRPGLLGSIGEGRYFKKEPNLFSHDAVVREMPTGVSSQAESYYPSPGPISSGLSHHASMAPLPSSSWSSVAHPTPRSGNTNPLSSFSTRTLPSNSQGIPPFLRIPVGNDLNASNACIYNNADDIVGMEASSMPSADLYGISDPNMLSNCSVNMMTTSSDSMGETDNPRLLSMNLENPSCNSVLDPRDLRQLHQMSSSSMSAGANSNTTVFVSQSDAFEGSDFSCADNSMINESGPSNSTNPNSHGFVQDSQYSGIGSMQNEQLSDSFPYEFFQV

| Structure (SMILES) | target | test | test system | conditions | scale | measurement | result |
| --- | --- | --- | --- | --- | --- | --- | --- |
| Cc1ccc2nc(-c3ccc4nc(-c5ccc(NC(=O)c6cccnc6)cc5)sc4c3)sc2c1S(=O)(=O)O | MBHA DNA substrate | SYBR Green I displacement |  | 100 µM |  | DNA bound | 15 ± 10% |
| CC#C/C(=N\OC[C@H]1COCCN1)c1ccc2ncnc(Nc3ccc(OCc4cccc(F)c4)c(Cl)c3)c2c1 | DDR2 (Homo sapiens, UniProt Q16832) | kinase activity |  | 10 µM |  | inhibition | 0% |
| O=C(O)C(Cc1ccc(I)cc1)Nc1nc(-c2ccc(Cl)c(Cl)c2)cs1 (stereo not shown) | glf | enzyme activity, inhibitor |  | 50 µM |  | inhibition | > 90% |
| Cc1ccc(S(=O)(=O)N(C)CC(=O)N(Cc2ccc(C3CCCCC3)cc2)c2ccc(C(=O)O)c(O)c2)cc1 | Signal transducer and activator of transcription 1, homodimer (Mus musculus, UniProt P42225) | EMSA, item: hSIE probe | NIH3T3/hEGFR nuclear extracts | 50 µM, added: EGF |  | DNA-binding activity | no inhibition |
| CCN(CC)C(=O)Oc1ccc(C(=O)Nc2cccc3cc[nH]c23)cc1 | GRIA1 (Homo sapiens, UniProt P42261) | modulator, two-electrode voltage clamp | Xenopus oocytes | 20 µM, added: 100 µM glutamate | relative to: agonist alone | current response | 101 ± 2.8% |
| CCN1CC(n2nccc2-c2cc(C(F)(F)F)ccc2Oc2ccc(S(=O)(=O)Nc3ncns3)cc2C#N)C1 | SCN9A (Homo sapiens, UniProt Q15858) | veratridine-induced response |  | concentration not given |  | inhibition | < 20% |
| CCCN1CCN(c2ccc3c(c2)C2CC3CCN2C(=O)OCc2ccccc2)CC1 (stereo not shown) | ADRA1B (Homo sapiens, UniProt P35368) | binding, radioligand binding |  |  |  | Ki | > 10 µM |
| CS(=O)(=O)NC(=O)C(Cc1ccc(I)cc1)Nc1nc(-c2ccc(Cl)c(Cl)c2)cs1 (stereo not shown) | glf | enzyme activity, inhibitor |  |  | relative to: compound over reference carboxylate | IC50 ratio | 2 to 3 fold |
| Cc1ccc2nc(-c3ccc4nc(-c5ccc(NC(=O)c6ccc7nc(-c8ccc(NC(=O)OCC9c%10ccccc%10-c%10ccccc%109)cc8)sc7c6)cc5)sc4c3)sc2c1S(=O)(=O)O | MBHA DNA substrate | SYBR Green I displacement |  | 100 µM |  | DNA bound | 67 ± 5% |
| C=CC(=O)N1C[C@H](c2ccc(Br)cc2)[C@@H]1C(=O)Nc1cccc2cccnc12 | NSUN2 (Homo sapiens, UniProt Q08J23) | tRNA methylation |  | 20 µM, 1 h, wild-type enzyme |  | m5C production | inhibited |
| O=C1NC(=O)N(c2cccc(Br)c2)C(=O)/C1=C/c1c[nH]c2ccccc12 | Serine protease hepsin (Hpn, Mus musculus, UniProt O35453) | hepsin activity |  | 50 µM | relative to: vehicle | inhibition of pericellular proteolysis | ~50% |
| CCN1CCN(Cc2ccc(NC(=O)c3ccc(C)c(/C=C/c4cnc5[nH]ccc5c4OC)c3)cc2C(F)(F)F)CC1 | NPM1-ALK fusion | kinase-CDC37 interaction, cell-based kinome screen |  | 5 µM | relative to: vehicle | log2 fold change | 0.02 |
| COc1cc(OC)c2ccccc2c1C=C1C(=O)NC(=S)NC1=O | REL (Homo sapiens, UniProt Q04864) | inhibitor, flow cytometry | SU-DHL-8, TMD8 | 3 µM, 24 h |  | nuclear translocation | decreased |
